Experimental data gathered from unrelated publications.
Lines come from different studies, so protocols differ.

CC1N=C(c2ccccc2F)c2cc(Nc3ccccc3C(F)(F)F)ccc2NC1=O (centres unmarked) gave a solubility of 8.09 µM (shake flask; PBS; 24 h, pH 7.4).
For CC(=O)N[C@H]1CSC(=O)[C@H](Cc2ccccc2)NC(=O)[C@H](Cc2ccccc2)NC(=O)COCCOCCNC1=O, the solubility was ~10000 µM (water).
O=P([O-])([O-])Oc1ccc(-c2cc(=S)ss2)cc1.[Na+].[Na+] gave a solubility of 1940 µg/mL (HPLC; water; 24 h, 25 °C).
The solubility of O=C(NCCNCCO)c1cn(Cc2ccccc2)c2cc(OCc3ccc(C(F)(F)F)cc3)c(Cl)cc2c1=O is reported as < 5 µM (shake flask; PBS; 24 h, pH 6.5, 25 °C).
The solubility of CCCCCc1cc(OC(=O)C(NC(=O)CCC(=O)O)C(C)C)c2c(c1)OC(C)(C)C1CCC(C)=CC21 (centres unmarked) is reported as 37.6 µg/mL (shake flask; water; 24 h, 25 °C).
With COc1cccc2c1C(=O)c1c(O)c3c(c(O)c1C2=O)CC(O)(C(=O)CO)CC3OC1CC(NC(=O)OC2C=CCCC(C)(C(=O)NCC(=O)O)CC2)C(O)C(C)O1 (centres unmarked) the solubility was 28000 µg/mL (PBS).
With O=C1C(O)=C(Nc2ccc(Cl)cc2)C(=O)c2ccccc21 the solubility was 100 µM (water; 12 h).
With O=c1c2ccccc2[se]n1CCCn1[se]c2ccccc2c1=O the solubility was 4 to 5 µg/mL (HPLC; water; 24 h, 25 °C).
For O=C(CN1CCN(c2cc3c(cc2F)c(=O)c(C(=O)O)cn3C2CC2)CC1)Nc1ccc(Cl)cc1, the solubility was 22.7 µg/mL (water).
For O=c1c2ccccc2[se]n1CCCCn1[se]c2ccccc2c1=O, the solubility was 1 to 3 µg/mL (HPLC; water; 24 h, 25 °C).
For C[C@]12C(=O)[C@](C)(C(c3ccccc3)=C1c1ccccc1)C1(Br)C(=O)N(CCN)C(=O)C12 (some centres unmarked), the solubility was 3900 µg/mL (HPLC; water; 8 °C).

A few entries again:
O=P([O-])([O-])Oc1ccc(-c2cc(=S)ss2)cc1.[Na+].[Na+] gave a solubility of 1940 µg/mL (HPLC; water; 24 h, 25 °C).
